Measured values from different studies.
Every numbered part comes from another study and shows a few of its results, in no order.

Block 1 — method: RNA Bind-n-Seq; form: RNA; matrix: in vitro; tested at: 365 nM; relative to: no-protein control; reading: higher = stronger binding
Target: RNA binding protein fox-1 homolog 2, RRM domain, GST-SBP tag (RBFOX2, Homo sapiens, UniProt O43251-10, residues 100-194)
Notes: natural RNA segment, single round, ends assumed
Constant ends, left off below: GGGAGUUCUACAGUCCGACGAUC … UGGAAUUCUCGGGUGCCAA
Construct (chain): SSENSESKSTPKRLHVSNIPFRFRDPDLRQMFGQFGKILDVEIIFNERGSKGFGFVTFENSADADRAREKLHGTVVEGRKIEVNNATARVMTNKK
`CCUCUGUCCUAAACCGUCCCCUCCUUCCCUCACCCCCAGCACAGGGGGAUUCUGAGCAGUGCCUCUUGUCUGAGGGACAUAUCAGUGACCUCGACGUUGCCUUUAGACUA`: “RBNS enrichment (R)” 0.48.
Under “RBNS enrichment (R)”, `CAUGUGCAAUUUGUAAAAUGAACCAGAUGUCACUACUUUUGUCUUUAUUUCAAGAAUAUGGCCAUCACUGUUCUCUUAUACAUGUUCUUUUCCAUAUUUUAAUUAUCAAA` is recorded as 0.465.
`CCUAUUGCAACAAAAUUAGGAAGUUUGUUGUAUAAAUAAGCAUGUAAAAGUGCACUUAAAAUGAAUCUUUAUUAUUGCUGAGAUUUUAAUAGACAAUCCAAAGUCUCCCC` — result for “RBNS enrichment (R)”: 3.37.
For `GUAUGAUCUAUUUUAUGUGCUCUAUGUUCCCAUUUGUUUGUUUGGUCUGGACAGUGGUUCUGGAAUGAAUUCUAUCUAGUAAAUUAGUAAAUGUGCUGUUUUGUAUAAAG`, “RBNS enrichment (R)” read 1.12.
Under “RBNS enrichment (R)”, `UUCAUGCUUAUAUAGAAUCUGAGUUCAUGCUGAAUACUUUUCAGCCAAUAAUUUAUAGCCUUUCCCUUAAAUCAAGAUUGAGUUUAAAAUUAUAGUUUGUCUUUUGUCUU` is recorded as 0.472.
Under “RBNS enrichment (R)”, `GGAGGUUCCAGAAUGAGUUCUUCCUGACAGGUUGUCUUCACUGGGAGCGUGGGGCCCCCAGGCCCCACCAGCACCGUCCUCCCCUAAUGAGGGGCCCUGCCGAGGCAUCA` is recorded as 0.918.
Under “RBNS enrichment (R)”, `AUUGGUUUUUAGGGGCCCCACUUCCCAAUUCAUUAGGUAUGACUGUGGAAAUACAGACAAGGAUCUUAGUUGAUAUUUUGGGCUUGGGGCAGUGAGGGCUUAGGACACCC` is recorded as 0.314.
`UUUAUCUAGAUUUUUAAAUGUAGCUUGUCAUAACAAAAUUUUAAUUACAAUUGGCUUGUAUGAGAAGAAAAAGUAUUUUUAUUGUUUUGAGUGAUGACGCAGAGACUCAG`: “RBNS enrichment (R)” 0.622.
`AACAUCACGAUCAAAGCAGCAGGUGCUGUGGUCUCUCAAAAUUGAUUUUUAUUUGACUCUGUGGCUCUAAGACUGCCUUGAACCGCCUGAGGCCUAUGCAUCUGAACAAG` — result for “RBNS enrichment (R)”: 2.02.
`CAAUAUUUGAACUUUUAACUCUUGACAUUGAAAAAAAAGGAUUUGGAGAAAUUACCAAGAUUUUAACAUCUAUAAAAUUGGUAUGUCUUAAAAGUUAUUUCAAAAAUCCU` — result for “RBNS enrichment (R)”: 0.65.
For `UUAAGAAUCUAGGUCCGCCCUCAAGCCCAUACUGACCAUGCCUCAUCCAGAGCUCCUCUGAAGCCAGGGGGCUAACGGAUGUUGUGUGGAGUCCUGGCUGGAGGUCCUCC`, “RBNS enrichment (R)” read 0.207.
Under “RBNS enrichment (R)”, `UUGUCACGUUAGCAACCAGUUUCUACUAUUCUGUGCCCAUCCAGUGUCAAUAUCAUUGAUUUCUUUUUCAUAUGAAGAUCCACAUGCAUUGUAAGAUUGUGAAGAUAUAU` is recorded as 0.352.

Block 2 — method: protein binding microarray; form: double-stranded DNA, one strand shown; matrix: in vitro; tested at: not given; relative to: not given; reading: higher = stronger binding
Target: Histone acetyltransferase KAT6A, winged helix 1, GST fusion (KAT6A, Homo sapiens, UniProt Q92794, residues 1-85)
Notes: 8-mer, flanks averaged, mean of 2 arrays, mostly near background
Construct (chain): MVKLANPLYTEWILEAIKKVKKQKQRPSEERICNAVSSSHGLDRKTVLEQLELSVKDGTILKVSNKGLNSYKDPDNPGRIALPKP
With `CCGTCACA` the E-score was 0.149.
The E-score of `AGGTCGAC` is reported as -0.27.
`ACATGCAT` gave an E-score of 0.00965.
`CGGTTAGA` gave an E-score of 0.105.
`CATGCTGG` has an E-score of -0.269.
The E-score of `AGCGCCCG` is reported as 0.385.
`TCCGCGCA` has an E-score of 0.394.
For `CTCCGGTC`, the E-score was 0.13.
For `AAGCTAGA`, the E-score was -0.262.
`CCTTGGCA` has an E-score of -0.253.
The E-score of `ATGATATG` is reported as -0.00523.
With `CGCCCGGC` the E-score was 0.413.
`AACCGGTA` gave an E-score of 0.241.
For `CCCGTGAA`, the E-score was 0.182.
For `ATTATCAG`, the E-score was -0.128.
`CTAGCCAC` gave an E-score of -0.144.
With `AAGCTTTC` the E-score was 0.0694.
The E-score of `GGGGAACC` is reported as 0.00328.
The E-score of `CCATTATA` is reported as -0.0807.
`GTCTTCAA` has an E-score of -0.213.
For `ATGCTTAG`, the E-score was -0.0387.
The E-score of `TACCGCGA` is reported as 0.342.
With `CTGTCACA` the E-score was -0.143.
The E-score of `CGGCGCCA` is reported as 0.414.

Block 3 — method: protein-binding microarray; form: double-stranded DNA, one strand shown; matrix: in vitro; tested at: 250 nM; notes: 60-bp whole probe; added: salmon DNA 0.4 mg/ml; relative to: random background probes; reading: higher = stronger binding; constant ends, left off below: GCCTAGCAC … GTCTTGATTCGCTTGACGCTGCTG
Target: Interferon regulatory factor 5, full length, phosphomimetic (IRF5, Homo sapiens, UniProt Q13568-2, residues 1-514, K96S/S451D/S453D/S456D/S462D)
The log fluorescence of `TTAGGACTTGGTTTCGGTTAGTGCTAG` is reported as 9.61 z-score.
`TCACTTCTAGACTTCTCACTGTGCTAG` has a log fluorescence of 0.375 z-score.
With `TTAGGGCTGGGGTATCGGTTAGTGCTA` the log fluorescence was 1.99 z-score.
The log fluorescence of `TTAGGTTCCCTTTTTCTTTAGTGCTAG` is reported as 0.662 z-score.
With `TCATGCTTGTGTCTGGGACTGTGCTAG` the log fluorescence was -0.414 z-score.
`TTAGGTTCCCTTTTACTTTAGTGCTAG` gave a log fluorescence of 0.805 z-score.
`TTAGATATCGGACTGGATTAGTGCTAG` has a log fluorescence of 0.981 z-score.
For `TCAATTCCCTTTCTCAAACTGTGCTAG`, the log fluorescence was 0.908 z-score.
With `CACTCCACCTCTGTGCTCTTGTGCTAG` the log fluorescence was -0.062 z-score.
The log fluorescence of `GACGGTATCGGTTTCCGGACGTGCTAG` is reported as 7 z-score.
`TCAAATTTCCACTTTGAACTGTGCTAG` gave a log fluorescence of 0.809 z-score.
With `TTCTGGTTCCCATTCCAGGGGTGCTAG` the log fluorescence was 0.832 z-score.
`TTAGGTGTCCTACTGCTTTAGTGCTAG` has a log fluorescence of -0.207 z-score.
With `TTAGGACTGCACTATCGGTTAGTGCTA` the log fluorescence was 6.4 z-score.
`TTAGGACTGCTTCTGCTTTAGTGCTAG` has a log fluorescence of -0.487 z-score.
The log fluorescence of `TCACTTTTTAAGATCTGACTGTGCTAG` is reported as 0.674 z-score.

Block 4 — method: RNA Bind-n-Seq; form: RNA; matrix: in vitro; tested at: 200 nM; notes: whole 134-nt RNA, ends assumed; added: 150 mM KCl; relative to: input library; reading: higher = stronger binding
Target: Ras GTPase-activating protein-binding protein 1, full length (G3BP1, Homo sapiens, UniProt Q13283)
UniProt Q13283, sequence (whole entry, looked up): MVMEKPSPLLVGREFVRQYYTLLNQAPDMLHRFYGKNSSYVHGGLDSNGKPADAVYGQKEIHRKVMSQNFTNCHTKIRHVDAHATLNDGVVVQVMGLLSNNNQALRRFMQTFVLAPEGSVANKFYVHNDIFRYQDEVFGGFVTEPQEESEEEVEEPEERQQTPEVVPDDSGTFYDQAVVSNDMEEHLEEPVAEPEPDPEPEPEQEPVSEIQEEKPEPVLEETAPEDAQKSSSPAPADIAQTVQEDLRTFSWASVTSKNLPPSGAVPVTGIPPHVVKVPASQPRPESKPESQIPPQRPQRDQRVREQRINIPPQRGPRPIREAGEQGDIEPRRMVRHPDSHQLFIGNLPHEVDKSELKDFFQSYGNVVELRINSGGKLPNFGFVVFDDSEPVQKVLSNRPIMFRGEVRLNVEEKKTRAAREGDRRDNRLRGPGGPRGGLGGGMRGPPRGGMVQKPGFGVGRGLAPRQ
Constant ends, left off below: GGGAGUUCUACAGUCCGACGAUC … UGGAAUUCUCGGGUGUCAAGG
`UAACUUUAGAGGAGGAUCUAAUGGAUAUGGCAGUGGACGUGGAUUUGGGGAUGGCUAUAAUGGGUAUGGAGGAGGACCUGGAGGUGGCAA` gave a log2 enrichment of 0.45.
The log2 enrichment of `CCUGUGCUACACAUCGUAUGUACCGAAUCGGGGAAAAAAAGGGGUUUUUUUGGGGUGGGGAAAGUAUUAUGUUACGCCGUUCGGAUCUGC` is reported as 0.282.
For `CACAGACAACACGCACCCACACAGACACAGAGGGAAGGGGUUGGGAUGGGGUCAGGGUGCACAGCAGGGCGGGGUAGGACCCCAGCCCCU`, the log2 enrichment was 2.06.
`AGUCCUGUGCUACACAUCGUAUGUACCGAAUCGGUUUGGUUUUUUUGGAAAAAAAGGAAAGUAUUAUGUUACGCCGUUCGGAUCUGCACU` has a log2 enrichment of -1.36.
For `UUUACCCCUCACUGGAGUCAGAUGAAGACAACCCCAUCUUUAAGUCCCGGUCGAAGAAAAGGAAAGGCUCAGACGACGCUCCCUACAGCC`, the log2 enrichment was -0.035.
`CUCAAGUCCUGUGCUACACAUCGUAUGUACCGAAUCGGGCGGGCGGGGCGGGGAAAGUAUUAUGUUACGCCGUUCGGAUCUGCACUUCCA` gave a log2 enrichment of 1.7.
With `AAGUCCUGUGCUACACAUCGUAUGUACCGAAUCGGGUUUUGGGGUUUUGGUUUUGGGAAAGUAUUAUGUUACGCCGUUCGGAUCUGCACU` the log2 enrichment was -0.82.
`UGGGAGGUGGAUUUUGUUUAUUUUUUUAGCUCAUUUCCAGGGGUGGGAAUUUUUCUUUAAUAUGUGUCAUGAAUAAAGUUGUUUUUGAAA` gave a log2 enrichment of 0.286.
`CCUGUGCUACACAUCGUAUGUACCGAAUCAAACCCCCAAAUUUUUUUAAACCCCCCCAAAAAAGUAUUAUGUUACGCCGUUCGGAUCUGC` has a log2 enrichment of 0.284.
For `UCAAGUCCUGUGCUACACAUCGUAUGUACCGAAUCGGGCCGGGGCCGGCCGGGGAAAGUAUUAUGUUACGCCGUUCGGAUCUGCACUUCC`, the log2 enrichment was -0.397.
With `CUCAAGUCCUGUGCUACACAUCGUAUGUACCGAAUCGGGGAAGGGAAGGGAAGGAAAGUAUUAUGUUACGCCGUUCGGAUCUGCACUUCC` the log2 enrichment was -0.00868.
`CACAGACAACACGCACCCACACAGACACAGAGGUAAGGGGUUGGGAUGGGGACAGGGUGCACAGCAGGGCGGGGUAGGACCCCAGCCCCU` gave a log2 enrichment of 1.84.
For `AGUCCUGUGCUACACAUCGUAUGUACCGAAUCGGUUUUUUUGGUUUUUUUGGAAAGGAAAGUAUUAUGUUACGCCGUUCGGAUCUGCACU`, the log2 enrichment was -1.59.
The log2 enrichment of `CCUGUGCUACACAUCGUAUGUACCGAAUCGGGGAAAAAGGGGAAAGGGGUUUUUUUGGGGAAAGUAUUAUGUUACGCCGUUCGGAUCUGC` is reported as 0.173.

A few entries again (block 1):
Under “RBNS enrichment (R)”, `CAUGUGCAAUUUGUAAAAUGAACCAGAUGUCACUACUUUUGUCUUUAUUUCAAGAAUAUGGCCAUCACUGUUCUCUUAUACAUGUUCUUUUCCAUAUUUUAAUUAUCAAA` is recorded as 0.465.
Under “RBNS enrichment (R)”, `UUCAUGCUUAUAUAGAAUCUGAGUUCAUGCUGAAUACUUUUCAGCCAAUAAUUUAUAGCCUUUCCCUUAAAUCAAGAUUGAGUUUAAAAUUAUAGUUUGUCUUUUGUCUU` is recorded as 0.472.
`UUUAUCUAGAUUUUUAAAUGUAGCUUGUCAUAACAAAAUUUUAAUUACAAUUGGCUUGUAUGAGAAGAAAAAGUAUUUUUAUUGUUUUGAGUGAUGACGCAGAGACUCAG`: “RBNS enrichment (R)” 0.622.
`CAAUAUUUGAACUUUUAACUCUUGACAUUGAAAAAAAAGGAUUUGGAGAAAUUACCAAGAUUUUAACAUCUAUAAAAUUGGUAUGUCUUAAAAGUUAUUUCAAAAAUCCU` — result for “RBNS enrichment (R)”: 0.65.
